{"data": "Assay results of several laboratories", "note": "Each numbered part is a random draw from the data of one study; scales do not carry over between parts. Positions count from the first letter of the parent shown."}
{"data": "Series 1", "target": "MAFG, bZIP domain (human)", "method": "DHFR protein complementation", "medium": "yeast", "notes": "single substitutions, most at no-binding floor", "reference": "wild-type JUN-FOS pair", "reading": "higher = stronger binding", "starting sequence": "JUN, bZIP domain (human); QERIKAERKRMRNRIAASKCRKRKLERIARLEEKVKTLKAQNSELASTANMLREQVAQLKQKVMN; partner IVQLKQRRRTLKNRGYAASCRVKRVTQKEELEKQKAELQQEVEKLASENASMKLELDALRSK"}
{"Substitution": "K36L", "binding fitness": "-1.32 natural log"}
{"Substitution": "T48K", "binding fitness": "-1.5 natural log"}
{"Substitution": "A49Y", "binding fitness": "-1.38 natural log"}
{"Substitution": "V56H", "binding fitness": "-1.39 natural log"}
{"Substitution": "K39A", "binding fitness": "-1.17 natural log"}
{"Substitution": "S47Y", "binding fitness": "-1.57 natural log"}
{"data": "Series 2", "target": "CCNF, cyclin fold, Cln2 fusion (human)", "method": "yeast growth competition, sequencing", "medium": "yeast", "notes": "strong parent motif", "reference": "not given", "reading": "higher = stronger binding", "starting sequence": "MICAL3 docking peptide (human); LQLRRQLSFSEDS; partner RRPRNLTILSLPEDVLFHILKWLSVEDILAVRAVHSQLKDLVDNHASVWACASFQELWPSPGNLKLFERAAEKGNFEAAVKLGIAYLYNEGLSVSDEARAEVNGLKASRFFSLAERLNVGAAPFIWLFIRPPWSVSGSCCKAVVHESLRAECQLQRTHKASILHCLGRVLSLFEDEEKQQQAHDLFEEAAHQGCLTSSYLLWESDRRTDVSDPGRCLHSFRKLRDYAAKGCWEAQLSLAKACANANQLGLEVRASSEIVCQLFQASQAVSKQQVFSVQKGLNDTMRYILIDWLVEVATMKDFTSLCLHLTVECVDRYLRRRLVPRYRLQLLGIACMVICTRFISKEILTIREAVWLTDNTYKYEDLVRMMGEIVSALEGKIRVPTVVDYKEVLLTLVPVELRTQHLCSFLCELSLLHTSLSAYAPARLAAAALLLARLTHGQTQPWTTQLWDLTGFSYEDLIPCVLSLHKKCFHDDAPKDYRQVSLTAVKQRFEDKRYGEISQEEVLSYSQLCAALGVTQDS"}
{"Substitution": "LQLRRQLSFSEES [D12E]", "normalised enrichment score": 5.43}
{"Substitution": "LQLSRQLSFSEDS [R4S]", "normalised enrichment score": 2.71}
{"Substitution": "LQIRRQLSFSEDS [L3I]", "normalised enrichment score": 6.53}
{"Substitution": "LQLRRQLSFSEIS [D12I]", "normalised enrichment score": 5.44}
{"Substitution": "LQLRGQLSFSEDS [R5G]", "normalised enrichment score": -0.11}
{"Substitution": "LQLRRYLSFSEDS [Q6Y]", "normalised enrichment score": 2.68}
{"Substitution": "LQLRRLLSFSEDS [Q6L]", "normalised enrichment score": 1.35}
{"data": "Series 3", "target": "ABI1, truncated, D143A, DHFR fusion (Arabidopsis thaliana)", "method": "DHFR PCA, deep sequencing", "medium": "yeast", "notes": "methotrexate growth selection, single substitutions", "together with": "(+)-ABA 0.032 µM", "reference": "wild-type fitted maximum", "reading": "higher = stronger binding", "starting sequence": "PYL1, truncated, DHFR fusion (Arabidopsis thaliana); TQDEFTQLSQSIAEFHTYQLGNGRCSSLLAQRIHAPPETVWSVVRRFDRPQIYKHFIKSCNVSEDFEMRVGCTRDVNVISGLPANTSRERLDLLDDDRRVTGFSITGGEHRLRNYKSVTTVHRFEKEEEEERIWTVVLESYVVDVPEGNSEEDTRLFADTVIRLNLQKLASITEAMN; partner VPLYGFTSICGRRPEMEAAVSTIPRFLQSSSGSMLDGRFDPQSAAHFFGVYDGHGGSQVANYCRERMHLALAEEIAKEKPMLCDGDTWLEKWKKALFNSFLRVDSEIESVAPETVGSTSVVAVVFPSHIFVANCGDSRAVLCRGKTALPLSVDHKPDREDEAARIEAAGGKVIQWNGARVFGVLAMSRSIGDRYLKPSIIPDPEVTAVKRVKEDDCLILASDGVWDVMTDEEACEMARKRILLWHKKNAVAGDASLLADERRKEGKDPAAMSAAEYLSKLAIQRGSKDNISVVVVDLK"}
{"Substitution": "V137I", "relative binding score [%]": 3.81}
{"Substitution": "A84T", "relative binding score [%]": 16.8}
{"Substitution": "I162S", "relative binding score [%]": 4.98}
{"Substitution": "S27K", "relative binding score [%]": -9.8}
{"Substitution": "S117I", "relative binding score [%]": -1.73}
{"Substitution": "G148C", "relative binding score [%]": 6.52}
{"Substitution": "C25D", "relative binding score [%]": -8.82}
{"Substitution": "S59G", "relative binding score [%]": 5.96}
{"Substitution": "E139I", "relative binding score [%]": -6.35}
{"Substitution": "D75R", "relative binding score [%]": 4.54}
{"data": "Mixed results"}
{"Molecule": "PhoQ, residues 284 288 289 292 302 303 SNGLAW", "target": "PhoP, residues 12 14 15 18 19 LHTVM (Escherichia coli, UniProt P23836)", "test": "Sort-seq, refers to: YFP reporter", "system": "E. coli", "conditions": "PhoQ-PhoP variant library, together with: 10 µM Mg2+", "scale": "reference: high Mg2+ state, higher = stronger signaling", "measurement": "fold induction", "value": 13.2}
{"note": "For quick reference, copied from above (series 1):"}
{"Substitution": "V56H", "binding fitness": "-1.39 natural log"}
{"Substitution": "T48K", "binding fitness": "-1.5 natural log"}
{"Substitution": "K36L", "binding fitness": "-1.32 natural log"}
